# Measurements gathered from unrelated publications.
# Numbers after ± are the reported error.
Structure (SMILES),target or system,test,test system,conditions,how to read,measurement,result
C=CCN1C(=O)C(CC=C)(C(=O)OCC)Oc2cc(F)ccc21 (stereo not shown),L02,"cell growth or viability, CCK-8",,"100 µM, 72 h",,inhibition,3.66%
CC(C)(C)C(=O)OCOP(=O)(OCOC(=O)C(C)(C)C)C1CCCN(O)C1=O (stereo not shown),MDA-MB-435,,,,,TGI,22.5 µM
CSCC[C@H](NC(=O)[C@@H](NC(=O)[C@H](CCC(N)=O)NC(=O)[C@H](CO)NC(=O)[C@@H](N)C(C)C)[C@@H](C)O)C(=O)N[C@@H](CCCNC(=N)N)C(=O)N[C@@H](CCC(N)=O)C(=O)N[C@H](C(=O)N[C@@H](C)C(=O)N[C@H](C(=O)N1CCC[C@H]1C(=O)N[C@@H](CC(C)C)C(=O)N[C@@H](CC(C)C)C(=O)N[C@@H](Cc1c[nH]c2ccccc12)C(=O)N[C@@H](Cc1ccccc1)C(=O)N[C@@H](Cc1c[nH]c2ccccc12)C(=O)N[C@H](C(=O)NCC(=O)N[C@@H](CO)C(=O)N[C@@H](CC(C)C)C(=O)NCCOCCOCCOCCOCCOCCOCCOCCOCCOCCOCCOCCOCCC(=O)N[C@@H](CS)C(N)=O)[C@@H](C)O)C(C)C)[C@@H](C)O,HCC1359 lung squamous carcinoma,"cell binding, phage binding, refers to: output/input phage",,"10 min, 37 °C",relative to: control phage,selectivity ratio,2.1 ± 1.2
CC(C)C12OC1C1OC13C1(C)CCC4=C(COC4=O)C1CC1OC13C2OC(=O)CCCOC1OC(CO)C(O)C(O)C1O (stereo not shown),primary airway epithelial cells,"cell viability, XTT",,47 h,,IC50,7.13 µM
O=C1NC2(CC2)COc2ncc(F)cc2[C@H]2COCCN2c2ccn3ncc1c3n2,,,"Sprague-Dawley rat, male, adrenals","oral, 2.5 mg/kg/day, 4 weeks, end of treatment",,organ-to-body weight ratio,0.017 ± 0.003%
CC(=O)NCSC[C@H](NC(=O)[C@@H]1CCCN1C(=O)[C@H](C)NC(=O)[C@@H](NC(=O)CNC(=O)[C@@H](NC(=O)[C@H](Cc1c[nH]c2ccccc12)NC(=O)[C@H](C)NC(=O)CNC(=O)[C@H](CO)NC(=O)[C@H](C)NC(=O)[C@@H]1CCCN1C(=O)[C@H](Cc1c[nH]c2ccccc12)NC(=O)[C@H](C)NC(=O)[C@H](C)NC(=O)[C@@H](N)Cc1ccc(O)cc1)[C@@H](C)O)[C@@H](C)O)C(=O)N[C@@H](CO)C(=O)N[C@@H](C)C(=O)NCC(=O)N[C@H](C(=O)NCCOCCOCCOCCOCCOCCOCCOCCOCCOCCOCCOCCOCCC(=O)N[C@@H](CS)C(N)=O)[C@@H](C)O,Calu-1 lung mucoepidermoid carcinoma,"cell binding, phage binding, refers to: output/input phage",,"10 min, 37 °C",relative to: control phage,selectivity ratio,92 ± 19
O=C(O)c1ccc(-c2nc(-c3ccccc3Cl)c3sccn23)cc1,HEL,"flow cytometry, refers to: surface CD41",,0.01 mM,higher = more expression,mean fluorescence intensity,32600 a.u.
COc1ccccc1-c1ccncc1C(=O)Nc1nnc(OCc2ccc(Cl)cc2)s1,RPE-1 BRCA1 WT parental,,,"1 µM, run 1",relative to: untreated,colony survival,83.3%
CC(C)[C@H](NC(=O)[C@H](CCCNC(=N)N)NC(=O)[C@@H]1CCCN1C(=O)[C@@H](NC(=O)[C@H](C)NC(=O)[C@H](Cc1ccc(O)cc1)NC(=O)[C@H](CCC(N)=O)NC(=O)[C@H](CCCCN)NC(=O)[C@H](CCCNC(=N)N)NC(=O)[C@@H]1CCCN1C(=O)[C@H](CCC(=O)O)NC(=O)[C@@H](NC(=O)[C@H](C)N)[C@@H](C)O)[C@@H](C)O)C(=O)N[C@@H](Cc1ccccc1)C(=O)N[C@@H](Cc1c[nH]c2ccccc12)C(=O)N[C@H](C(=O)N[C@@H](CC(=O)O)C(=O)N[C@@H](C)C(=O)N1CCC[C@H]1C(=O)NCC(=O)NCCOCCOCCOCCOCCOCCOCCOCCOCCOCCOCCOCCOCCC(=O)N[C@@H](CS)C(N)=O)[C@@H](C)O,H2073 lung adenocarcinoma,"cell binding, phage binding, refers to: output/input phage",,"10 min, 37 °C",relative to: control phage,selectivity ratio,60 ± 20
C#CCN1C(=O)C(CC#C)(C(=O)OCC)Oc2ccccc21 (stereo not shown),HaCaT,"cell growth or viability, CCK-8",,"6.25 µM, 72 h",,inhibition,0.52%
CC(C)C[C@H](NC(=O)[C@H](CC(=O)O)NC(=O)CNC(=O)[C@@H](N)CCCNC(=N)N)C(=O)N[C@@H](C)C(=O)N[C@H](C(=O)N[C@@H](CC(C)C)C(=O)N[C@@H](CCCNC(=N)N)C(=O)N[C@@H](CCC(N)=O)C(=O)N[C@@H](CC(C)C)C(=O)N[C@@H](C)C(=O)N[C@@H](CCC(N)=O)C(=O)N[C@@H](CCC(=O)O)C(=O)N[C@@H](CC(=O)O)C(=O)NCC(=O)N[C@H](C(=O)N[C@H](C(=O)NCC(=O)N[C@H](C(=O)N[C@@H](CCCNC(=N)N)C(=O)NCCOCCOCCOCCOCCOCCOCCOCCOCCOCCOCCOCCOCCC(=O)N[C@@H](CS)C(N)=O)C(C)C)C(C)C)C(C)C)[C@@H](C)O,HCC1359 lung squamous carcinoma,"cell binding, phage binding, refers to: output/input phage",,"10 min, 37 °C",relative to: control phage,selectivity ratio,5.4 ± 1.3
Cc1cc(Oc2nc(N3CC[C@@H](c4ccncc4)C3)ncc2F)[nH]n1,MDA-MB-435,cell proliferation,skin cancer,,,IC50,44.7 µM
CCOC(=O)C1(Cc2ccccc2)Oc2cc(F)ccc2N(Cc2ccccc2)C1=O (stereo not shown),L02,"cell growth or viability, CCK-8",,"50 µM, 72 h",,inhibition,0.83%

# For quick reference, copied from above:
Structure (SMILES),target or system,test,test system,conditions,how to read,measurement,result
CC(=O)NCSC[C@H](NC(=O)[C@@H]1CCCN1C(=O)[C@H](C)NC(=O)[C@@H](NC(=O)CNC(=O)[C@@H](NC(=O)[C@H](Cc1c[nH]c2ccccc12)NC(=O)[C@H](C)NC(=O)CNC(=O)[C@H](CO)NC(=O)[C@H](C)NC(=O)[C@@H]1CCCN1C(=O)[C@H](Cc1c[nH]c2ccccc12)NC(=O)[C@H](C)NC(=O)[C@H](C)NC(=O)[C@@H](N)Cc1ccc(O)cc1)[C@@H](C)O)[C@@H](C)O)C(=O)N[C@@H](CO)C(=O)N[C@@H](C)C(=O)NCC(=O)N[C@H](C(=O)NCCOCCOCCOCCOCCOCCOCCOCCOCCOCCOCCOCCOCCC(=O)N[C@@H](CS)C(N)=O)[C@@H](C)O,Calu-1 lung mucoepidermoid carcinoma,"cell binding, phage binding, refers to: output/input phage",,"10 min, 37 °C",relative to: control phage,selectivity ratio,92 ± 19
